Experimental data pooled from the literature.
Numbered parts are unrelated; each lists some results of a single study. Positions count from the first letter of the parent shown.

Set 1
Target: Fragile X messenger ribonucleoprotein 1, C-terminal low-complexity region (Fmr1, Mus musculus, UniProt P35922)
Method: RNA Bind-n-Seq
Molecule type: RNA
Matrix: in vitro
Tested at: 200 nM
Notes: whole 134-nt RNA, ends assumed
With: 150 mM LiCl
Baseline: input library
Direction: higher = stronger binding
All molecules: 7-deaza-guanosine replaces G
Strand	log2 enrichment
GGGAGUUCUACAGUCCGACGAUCUGGGAGGUGGAUUCUGUUUAUUUUUUUAGCUCAUUUCCAGGGGUGGGAAUUUUUUUUUAAUAUGUGUCAUGAAUAAAGUUGUUUUUGAAAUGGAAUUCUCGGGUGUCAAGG	0.934
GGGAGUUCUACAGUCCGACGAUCUGGGAGGUGGAUUUUGUUUAUUUUUUUAGGUCAUUUCCAGGGGUGGGAAUUUUUUUUUAAUAUGUGUCAUGAAUAAAGUUGUUUUUGAAAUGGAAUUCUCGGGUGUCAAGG	0.498
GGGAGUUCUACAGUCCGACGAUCUAACUUUAGAGGAGGAUCUGAUGGAUAUGGCAGUGGACGUGGAUUUGGGGAUGGCUAUAAUUGGUAUGGAGGAGGACCUGGAGGUGGCAAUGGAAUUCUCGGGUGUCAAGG	0.718
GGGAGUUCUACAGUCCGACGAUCUGAAGACUAUGAGACUGCUCUAUCAGGAAAGGAAGCCCUUUCGGCUGCGCUGCGCUCACAAAACCUCACCAAGAGUACAGAGAACCACAGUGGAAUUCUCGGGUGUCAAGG	-0.331
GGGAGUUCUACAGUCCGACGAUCCAAGUCCUGUGCUACACAUCGUAUGUACCGAAUCGGCCCGGGCCCGGGGCCCGGGGAAAGUAUUAUGUUACGCCGUUCGGAUCUGCACUUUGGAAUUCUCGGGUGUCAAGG	-1.92
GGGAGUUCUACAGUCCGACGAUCAGUCCUGUGCUACACAUCGUAUGUACCGAAUCGGUUUUUUUGGUUUUUGGAAAAAGGAAAGUAUUAUGUUACGCCGUUCGGAUCUGCACUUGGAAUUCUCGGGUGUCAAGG	-2.76
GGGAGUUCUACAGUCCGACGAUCUGGGAGGUGGAUUUUGUUUAUUUUUUUAGCUCAUUUCCAGGGGUGGGAAUUUUUUUUUAAUUUGUGUCAUGAAUAAAGUUGUUUUUGAAAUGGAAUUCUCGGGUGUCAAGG	0.0859
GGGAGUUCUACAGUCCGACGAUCCUCAAGUCCUGUGCUACACAUCGUAUGUACCGAAUCGGUGGUUUUUGGAAAGGAAAGUAUUAUGUUACGCCGUUCGGAUCUGCACUUCCAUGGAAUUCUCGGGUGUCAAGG	0.702
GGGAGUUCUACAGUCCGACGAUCACCAUGCAGGUGGGCAUCUGUGGGAAGUGGGGCAAGGGGGGGAUAGGGAGGGGGGUAACACUUUGGGAACAGGUGGUCCCAGGUCGUUUCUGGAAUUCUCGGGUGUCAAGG	1.31
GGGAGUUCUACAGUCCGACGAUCUGGCCCUGGUGGCAUGCGGGGAGGAAGAGGUGGCCUCAUGGAUCGCGGUGGUCCCGGUGGAAUGUUCAGAGGUGGCCGUGGUGGAGACAGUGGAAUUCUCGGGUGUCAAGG	-0.262
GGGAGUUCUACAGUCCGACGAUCCUGUGCUACACAUCGUAUGUACCGAAUCGGGGUUUUUUUGGGGAAAAAGGGGAAAAAGGGGAAAGUAUUAUGUUACGCCGUUCGGAUCUGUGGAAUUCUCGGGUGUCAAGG	-1.04

Set 2
Target: CCNE2, cyclin fold, Cln2 fusion (human)
Method: yeast growth competition, sequencing
Matrix: yeast
Notes: strong parent motif
Baseline: not given
Direction: higher = stronger binding
Parent: BRCA2 docking peptide (human); PSIKRNLLNEFDR
Change	normalised enrichment score
R5G	0.00243
R5F	-0.772
D12T	2.11
L8P	0.17
L8C	0.565
I3W	3.01
R13H	0.866
E10P	1.01
L8I	1.52
N6A	-0.382
N6P	0.457

Set 3
Target: ABI1, truncated, D143A, DHFR fusion (Arabidopsis thaliana)
Method: DHFR PCA, deep sequencing
Matrix: yeast
Notes: methotrexate growth selection, single substitutions
With: (+)-ABA 0 µM
Baseline: wild-type fitted maximum
Direction: higher = stronger binding
Parent: PYL1, truncated, DHFR fusion (Arabidopsis thaliana); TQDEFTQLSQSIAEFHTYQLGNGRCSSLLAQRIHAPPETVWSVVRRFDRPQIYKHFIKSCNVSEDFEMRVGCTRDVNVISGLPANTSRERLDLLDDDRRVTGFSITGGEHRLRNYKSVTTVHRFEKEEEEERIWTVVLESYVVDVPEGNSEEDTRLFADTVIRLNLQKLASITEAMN; partner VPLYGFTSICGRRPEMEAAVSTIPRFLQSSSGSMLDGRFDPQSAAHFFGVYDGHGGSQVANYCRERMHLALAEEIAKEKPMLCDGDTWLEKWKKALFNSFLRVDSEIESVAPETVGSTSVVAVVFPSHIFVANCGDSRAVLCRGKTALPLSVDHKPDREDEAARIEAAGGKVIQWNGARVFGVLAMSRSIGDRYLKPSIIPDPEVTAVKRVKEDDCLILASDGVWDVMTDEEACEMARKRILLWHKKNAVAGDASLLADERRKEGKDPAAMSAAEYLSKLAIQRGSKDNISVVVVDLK
Change	relative binding score [%]
T1P	25
S117T	0.213
D48A	-2.36
S117V	1.42
V145Q	-12.6
A175S	23.4
S42C	1.38
L94N	-3.72
E14M	3.2

Further values, each from its own experiment
Molecule	target	assay	system	setting	how to read	quantity	result
PhoQ, residues 284 288 289 292 302 303 NLMGRA	PhoP, residues 12 14 15 18 19 SMASL (Escherichia coli, UniProt P23836)	Sort-seq, refers to: YFP reporter	E. coli	PhoQ-PhoP variant library, with: 10 µM Mg2+	baseline: high Mg2+ state, higher = stronger signaling	fold induction	10.7

Excerpt of the above (set 1):
Strand	log2 enrichment
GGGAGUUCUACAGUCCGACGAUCAGUCCUGUGCUACACAUCGUAUGUACCGAAUCGGUUUUUUUGGUUUUUGGAAAAAGGAAAGUAUUAUGUUACGCCGUUCGGAUCUGCACUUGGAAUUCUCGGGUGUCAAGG	-2.76
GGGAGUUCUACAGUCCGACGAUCUGGGAGGUGGAUUUUGUUUAUUUUUUUAGCUCAUUUCCAGGGGUGGGAAUUUUUUUUUAAUUUGUGUCAUGAAUAAAGUUGUUUUUGAAAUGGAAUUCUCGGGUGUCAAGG	0.0859
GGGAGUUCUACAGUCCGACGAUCCUCAAGUCCUGUGCUACACAUCGUAUGUACCGAAUCGGUGGUUUUUGGAAAGGAAAGUAUUAUGUUACGCCGUUCGGAUCUGCACUUCCAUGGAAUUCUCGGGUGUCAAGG	0.702
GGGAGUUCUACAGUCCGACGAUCACCAUGCAGGUGGGCAUCUGUGGGAAGUGGGGCAAGGGGGGGAUAGGGAGGGGGGUAACACUUUGGGAACAGGUGGUCCCAGGUCGUUUCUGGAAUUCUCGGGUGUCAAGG	1.31
